Published values from different studies.
Compare with care: the assays were run in different laboratories. “And” joins repeats or separate records; there may be more than shown. Numbers after ± are the reported error.
histidine kinase ComD: histidine kinase ComD (Streptococcus pneumoniae serotype 4, UniProt A0A0H2US84)
CES2: Cocaine esterase (CES2, Homo sapiens, UniProt O00748)
UniProt O00748, sequence (whole entry, looked up): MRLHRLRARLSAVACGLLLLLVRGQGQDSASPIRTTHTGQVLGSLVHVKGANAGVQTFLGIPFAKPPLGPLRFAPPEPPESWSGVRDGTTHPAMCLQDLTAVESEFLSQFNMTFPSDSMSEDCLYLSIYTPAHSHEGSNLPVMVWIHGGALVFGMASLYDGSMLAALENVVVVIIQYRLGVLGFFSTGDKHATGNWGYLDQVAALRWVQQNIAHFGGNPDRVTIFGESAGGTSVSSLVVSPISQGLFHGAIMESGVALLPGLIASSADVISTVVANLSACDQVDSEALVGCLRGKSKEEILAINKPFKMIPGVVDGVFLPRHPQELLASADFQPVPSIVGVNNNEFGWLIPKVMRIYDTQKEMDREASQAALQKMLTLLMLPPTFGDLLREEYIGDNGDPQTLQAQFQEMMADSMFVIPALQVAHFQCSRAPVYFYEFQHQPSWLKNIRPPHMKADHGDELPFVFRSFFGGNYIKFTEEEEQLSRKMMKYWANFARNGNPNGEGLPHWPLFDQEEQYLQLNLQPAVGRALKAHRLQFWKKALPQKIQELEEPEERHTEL
P4HB: Protein disulfide-isomerase (P4HB, Homo sapiens, UniProt P07237)
UniProt P07237, sequence (whole entry, looked up): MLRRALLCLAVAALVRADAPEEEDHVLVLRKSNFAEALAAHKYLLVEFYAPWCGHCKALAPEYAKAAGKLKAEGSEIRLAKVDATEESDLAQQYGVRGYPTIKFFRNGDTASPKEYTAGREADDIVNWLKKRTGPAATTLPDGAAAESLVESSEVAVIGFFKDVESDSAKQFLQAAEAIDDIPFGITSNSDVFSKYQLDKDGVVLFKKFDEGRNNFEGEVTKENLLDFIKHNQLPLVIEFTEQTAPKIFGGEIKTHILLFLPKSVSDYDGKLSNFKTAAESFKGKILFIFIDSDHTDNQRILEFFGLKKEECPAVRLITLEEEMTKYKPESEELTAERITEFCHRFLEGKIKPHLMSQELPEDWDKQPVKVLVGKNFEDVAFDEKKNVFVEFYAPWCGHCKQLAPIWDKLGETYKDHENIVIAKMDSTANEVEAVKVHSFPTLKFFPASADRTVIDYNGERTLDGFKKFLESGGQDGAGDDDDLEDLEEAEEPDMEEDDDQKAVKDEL
CPL: CPL (Toxoplasma gondii, UniProt Q6DMN0)
AR: Androgen receptor (AR, Homo sapiens, UniProt P10275)
UniProt P10275, sequence (whole entry, looked up): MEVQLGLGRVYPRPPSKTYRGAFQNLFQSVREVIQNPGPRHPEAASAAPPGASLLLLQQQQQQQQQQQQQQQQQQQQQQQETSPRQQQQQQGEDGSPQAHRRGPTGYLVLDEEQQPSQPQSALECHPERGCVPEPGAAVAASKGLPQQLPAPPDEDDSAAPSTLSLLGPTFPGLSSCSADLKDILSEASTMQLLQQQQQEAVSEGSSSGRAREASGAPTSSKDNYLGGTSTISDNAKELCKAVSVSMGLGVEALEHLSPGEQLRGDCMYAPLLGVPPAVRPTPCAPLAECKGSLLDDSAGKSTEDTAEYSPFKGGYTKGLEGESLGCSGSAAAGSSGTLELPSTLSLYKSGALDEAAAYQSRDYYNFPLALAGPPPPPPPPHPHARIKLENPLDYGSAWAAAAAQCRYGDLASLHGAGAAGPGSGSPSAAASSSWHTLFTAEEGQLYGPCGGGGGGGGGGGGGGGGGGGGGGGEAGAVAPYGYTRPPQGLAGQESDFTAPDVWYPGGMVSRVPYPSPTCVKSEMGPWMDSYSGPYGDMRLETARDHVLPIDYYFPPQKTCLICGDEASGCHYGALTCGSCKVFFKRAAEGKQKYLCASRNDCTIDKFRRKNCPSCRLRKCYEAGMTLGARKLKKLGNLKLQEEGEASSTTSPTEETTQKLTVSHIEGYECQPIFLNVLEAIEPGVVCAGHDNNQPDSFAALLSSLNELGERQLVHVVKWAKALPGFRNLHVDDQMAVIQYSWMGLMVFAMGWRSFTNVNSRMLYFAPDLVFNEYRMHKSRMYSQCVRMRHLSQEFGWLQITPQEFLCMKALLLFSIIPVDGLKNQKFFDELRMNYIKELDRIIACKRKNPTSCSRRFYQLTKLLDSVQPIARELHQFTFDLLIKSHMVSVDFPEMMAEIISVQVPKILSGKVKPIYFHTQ
HDAC8: Histone deacetylase 8 (HDAC8, Homo sapiens, UniProt Q9BY41)
UniProt Q9BY41, sequence (whole entry, looked up): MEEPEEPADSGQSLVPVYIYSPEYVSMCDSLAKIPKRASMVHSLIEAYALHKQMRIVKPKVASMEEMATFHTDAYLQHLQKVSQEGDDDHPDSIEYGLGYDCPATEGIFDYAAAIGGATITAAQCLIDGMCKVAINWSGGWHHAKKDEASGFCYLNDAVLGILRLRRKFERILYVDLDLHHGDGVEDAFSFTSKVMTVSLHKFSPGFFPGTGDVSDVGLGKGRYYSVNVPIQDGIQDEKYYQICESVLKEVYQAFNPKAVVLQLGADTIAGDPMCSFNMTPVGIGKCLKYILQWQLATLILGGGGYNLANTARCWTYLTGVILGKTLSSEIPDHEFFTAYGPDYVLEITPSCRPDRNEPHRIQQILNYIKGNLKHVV
gag-pol integrase: Gag-Pol polyprotein, integrase (gag-pol, Human immunodeficiency virus type 1 group M subtype B, UniProt P04585)
UniProt P51878, sequence (whole entry, looked up): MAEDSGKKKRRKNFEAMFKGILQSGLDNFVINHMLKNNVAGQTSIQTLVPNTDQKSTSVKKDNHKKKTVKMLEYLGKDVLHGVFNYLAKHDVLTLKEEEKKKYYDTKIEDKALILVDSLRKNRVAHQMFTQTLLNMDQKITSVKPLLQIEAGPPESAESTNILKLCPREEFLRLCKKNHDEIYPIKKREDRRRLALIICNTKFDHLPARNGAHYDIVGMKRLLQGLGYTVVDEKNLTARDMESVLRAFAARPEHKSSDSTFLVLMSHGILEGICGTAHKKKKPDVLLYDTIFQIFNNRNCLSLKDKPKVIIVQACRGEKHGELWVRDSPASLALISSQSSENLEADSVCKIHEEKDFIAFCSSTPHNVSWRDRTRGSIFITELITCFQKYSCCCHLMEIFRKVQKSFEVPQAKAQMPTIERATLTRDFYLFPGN
UniProt P05979, sequence (whole entry, looked up): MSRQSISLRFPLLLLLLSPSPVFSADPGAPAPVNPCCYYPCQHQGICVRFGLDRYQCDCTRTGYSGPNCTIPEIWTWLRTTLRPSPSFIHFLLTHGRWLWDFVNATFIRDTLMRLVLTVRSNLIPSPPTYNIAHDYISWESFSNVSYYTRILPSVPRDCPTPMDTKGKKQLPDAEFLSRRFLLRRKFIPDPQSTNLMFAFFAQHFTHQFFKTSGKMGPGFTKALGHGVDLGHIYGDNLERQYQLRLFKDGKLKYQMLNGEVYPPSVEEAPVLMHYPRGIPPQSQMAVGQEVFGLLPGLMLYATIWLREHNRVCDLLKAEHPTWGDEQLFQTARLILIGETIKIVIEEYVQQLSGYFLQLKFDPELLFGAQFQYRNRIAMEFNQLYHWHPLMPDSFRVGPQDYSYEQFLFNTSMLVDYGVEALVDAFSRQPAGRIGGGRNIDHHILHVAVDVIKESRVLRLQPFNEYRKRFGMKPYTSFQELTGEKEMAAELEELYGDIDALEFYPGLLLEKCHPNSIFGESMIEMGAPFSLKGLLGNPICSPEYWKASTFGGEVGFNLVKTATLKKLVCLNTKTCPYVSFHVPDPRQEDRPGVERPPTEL
UniProt O60678, sequence (whole entry, looked up): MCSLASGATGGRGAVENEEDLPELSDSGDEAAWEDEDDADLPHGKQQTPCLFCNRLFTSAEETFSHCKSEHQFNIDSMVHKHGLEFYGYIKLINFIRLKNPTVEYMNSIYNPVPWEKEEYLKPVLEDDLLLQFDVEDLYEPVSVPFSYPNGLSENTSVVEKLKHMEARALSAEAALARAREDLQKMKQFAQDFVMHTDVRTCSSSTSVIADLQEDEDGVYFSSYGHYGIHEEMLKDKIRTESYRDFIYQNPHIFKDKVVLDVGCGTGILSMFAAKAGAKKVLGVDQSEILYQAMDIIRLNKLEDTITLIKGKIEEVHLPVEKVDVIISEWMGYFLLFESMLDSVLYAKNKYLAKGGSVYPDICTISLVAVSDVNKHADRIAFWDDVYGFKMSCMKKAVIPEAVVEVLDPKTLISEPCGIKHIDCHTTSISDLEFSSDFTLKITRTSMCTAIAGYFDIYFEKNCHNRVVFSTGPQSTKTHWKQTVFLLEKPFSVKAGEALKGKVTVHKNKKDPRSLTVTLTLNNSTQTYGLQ
UniProt O43614, sequence (whole entry, looked up): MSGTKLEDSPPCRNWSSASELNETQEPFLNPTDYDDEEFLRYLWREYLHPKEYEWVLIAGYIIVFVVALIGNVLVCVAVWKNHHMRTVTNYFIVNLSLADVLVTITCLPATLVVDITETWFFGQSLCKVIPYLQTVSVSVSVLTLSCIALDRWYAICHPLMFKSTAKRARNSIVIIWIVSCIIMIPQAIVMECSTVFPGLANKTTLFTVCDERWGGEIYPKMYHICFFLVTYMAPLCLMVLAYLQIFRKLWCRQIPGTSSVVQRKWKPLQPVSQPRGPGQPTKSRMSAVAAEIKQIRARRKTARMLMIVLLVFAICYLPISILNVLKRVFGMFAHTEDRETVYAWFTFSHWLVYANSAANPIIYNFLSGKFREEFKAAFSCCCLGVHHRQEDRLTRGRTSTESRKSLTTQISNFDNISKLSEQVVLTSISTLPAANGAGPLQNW
UniProt P19256, sequence (whole entry, looked up): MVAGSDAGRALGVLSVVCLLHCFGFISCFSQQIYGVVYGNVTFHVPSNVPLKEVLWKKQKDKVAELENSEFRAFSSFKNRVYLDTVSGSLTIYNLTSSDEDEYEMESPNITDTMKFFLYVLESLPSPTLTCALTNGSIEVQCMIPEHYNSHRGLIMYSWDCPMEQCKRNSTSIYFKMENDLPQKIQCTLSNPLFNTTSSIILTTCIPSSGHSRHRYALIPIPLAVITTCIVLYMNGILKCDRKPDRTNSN
UniProt P00784, sequence (whole entry, looked up): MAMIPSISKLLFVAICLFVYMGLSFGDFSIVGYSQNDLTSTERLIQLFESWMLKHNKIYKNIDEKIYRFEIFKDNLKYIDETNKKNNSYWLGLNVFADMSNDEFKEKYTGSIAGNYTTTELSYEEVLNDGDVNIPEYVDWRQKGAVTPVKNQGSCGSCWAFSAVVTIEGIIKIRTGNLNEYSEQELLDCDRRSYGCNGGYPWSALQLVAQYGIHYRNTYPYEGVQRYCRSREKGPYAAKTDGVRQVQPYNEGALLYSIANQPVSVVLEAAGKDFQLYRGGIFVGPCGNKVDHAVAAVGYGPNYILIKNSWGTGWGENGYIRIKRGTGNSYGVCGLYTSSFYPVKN

| SMILES | target | assay | test system | setting | IC50 |
| --- | --- | --- | --- | --- | --- |
| CSCC[C@H](NC(=O)[C@H](C)N)C(=O)N[C@@H](CCCNC(=N)N)C(=O)N[C@@H](CCC(N)=O)C(=O)N[C@H](C(=O)N[C@@H](Cc1c[nH]cn1)C(=O)N[C@@H](CC(N)=O)C(=O)N[C@@H](Cc1ccccc1)C(=O)N[C@@H](Cc1ccccc1)C(=O)N[C@@H](Cc1ccccc1)C(=O)N[C@@H](Cc1ccccc1)C(=O)N[C@@H](Cc1ccccc1)C(=O)N[C@@H](Cc1ccccc1)C(=O)N[C@@H](CCCCN)C(=O)N[C@@H](CCCNC(=N)N)C(=O)N[C@@H](CCCNC(=N)N)C(=O)O)[C@@H](C)O | histidine kinase ComD | reporter gene, antagonist | Streptococcus pneumoniae, TIGR4 comX::lacZ | 30 min, 37 °C, with: CSP2 250 nM | > 10 µM |
| NC1CC1c1ccc(NC(=O)C(Cc2cccc3ccccc23)NC(=O)OCc2ccccc2)cc1 (stereo not shown) | Lysine-specific histone demethylase 1A, with CoREST (KDM1A, Homo sapiens, UniProt O60341) | demethylase activity, inhibitor, Amplex UltraRed HRP | – | 15 min preincubation, with: H3K4me1 peptide, CoREST | 0.173 ± 0.028 µM |
| N#CC(C#N)C(c1cccc(Cl)c1)c1c[nH]c2ccccc12 (stereo not shown) | CES2 | enzyme activity, inhibitor | human liver microsomes | pH 7.4, 37 °C, with: fluorescein diacetate | 3.29 ± 0.28 µM |
| Nc1ncnc2c1ncn2[C@@H]1O[C@H](CSCCNC(=O)NCCc2ccccc2)[C@@H](O)[C@H]1O | PRMT3 (Homo sapiens, UniProt O60678) | enzyme activity, inhibitor, radiometric | – | – | > 50 µM |
| CCCc1ccc(S(=O)(=O)N2CC2C(=O)OC)cc1 (stereo not shown) | P4HB | enzyme activity, inhibitor, absorbance | – | pH 7.6 | 0.85 µM |
| C[C@@H]1NC(=O)[C@H](C)NC(=O)[C@@H]2CSSC[C@H](NC(=O)[C@H](CO)NC(=O)CNC1=O)C(=O)N[C@@H](CCCCN)C(=O)N[C@H]1CSSC[C@H](NC(=O)[C@H](CCCCN)NC(=O)[C@@H]3CSSC[C@H](NC(=O)[C@H](CO)NC1=O)C(=O)N[C@@H](Cc1ccc(O)cc1)C(=O)NCC(=O)N[C@@H](CC(=O)O)C(=O)N[C@@H](CC(=O)O)C(=O)N3)C(=O)N[C@@H](CCC(=O)O)C(=O)N2 | Lymphocyte function-associated antigen 3 (CD58, Homo sapiens, UniProt P19256) | – | human cells | – | > 50 µM |
| CC(C)CCN(c1nc(C#N)nc(NC2COC2)n1)C(C)c1ccc(F)cc1 (stereo not shown) | CPL | enzyme activity, inhibitor, Z-L-R-AMC hydrolysis fluorescence | – | – | 0.092 µM |
| O=C(O)c1ccccc1Nc1ccc(Sc2ccccc2)cc1 | AR | reporter gene, antagonist, MMTV-Luc reporter | MDA-kb2 | 20 h, with: 8 nM DHT (EC90) | 14.4 ± 5.5 µM |
| COc1ccc(N=Nc2cccc(NC(=O)CCCCCCC(=O)NO)c2)cc1 | HDAC8 | enzyme activity, inhibitor | – | trans isomer | 0.843 ± 0.204 µM |
| CC(C)C[C@@H]1NC(=O)[C@H](CCCNC(=N)N)NC(=O)[C@H](CCCCN)NC(=O)[C@H](CC(=O)O)NC(=O)[C@H](C)NC(=O)[C@@H](CO)NC1=O | Disintegrin and metalloproteinase domain-containing protein 8 (Homo sapiens, UniProt P78325) | enzyme activity, inhibitor, fluorescence | – | – | > 5 µM |
| O=C(O)c1cc2ccccc2n1Cc1ccccc1 | TDO2 (Homo sapiens, UniProt P48775) | inhibitor | – | with: L-tryptophan 400 µM | > 500 µM |
| OC1(c2ccc(Cl)cc2)CCN(Cc2ccccc2F)CC1 | CatSper channel complex (Homo sapiens, UniProt Q7RTX7+Q86XQ3+Q8NEC5+Q96P56) | calcium influx, inhibitor, FLIPR | human sperm | with: 3 µM progesterone | 18 ± 2 µM |
| C/C=C1\NC(=O)[C@H](CC(C)C)NC(=O)[C@H](NC(=O)[C@@H]2CSC[C@H]3NC(=O)[C@H]([C@@H](C)CC)NC(=O)[C@H](CC(N)=O)NC(=O)[C@H](Cc4ccc(O)cc4)NC(=O)[C@H](Cc4c[nH]c5ccccc45)NC(=O)[C@H](C)NC(=O)[C@@H](N)CSSC[C@H](NC3=O)C(=O)N[C@@H](CCCNC(=N)N)C(=O)N[C@@H](CC(C)C)C(=O)NCC(=O)N[C@@H](CC(N)=O)C(=O)N[C@@H](CCCCN)C(=O)NCC(=O)N[C@@H](C)C(=O)N[C@@H](Cc3ccc(O)cc3)C(=O)N2)[C@H](C)SC[C@@H](C(=O)N[C@@H](CCSC)C(=O)N2CCC[C@H]2C(=O)N[C@@H](CO)C(=O)N[C@@H](C)C(=O)N[C@@H](CC(N)=O)C(=O)O)NC(=O)[C@H](CCC(=O)O)NC(=O)[C@H](C(C)C)NC1=O | PBP1b (Escherichia coli) | transglycosylase activity, inhibitor | – | with: lipid II 4 µM | 29.5 ± 3.5 µM |
| CC(C)C[C@@H]1NC(=O)[C@H](CCCCN)NC(=O)[C@H](CC(C)C)NC(=O)[C@@](C)(NC(=O)[C@H](Cc2ccccc2)NC(=O)[C@H](Cc2ccc(O)cc2)NC(=O)[C@H](C)NC(=O)[C@@H](N)[C@@H](C)O)CCCCC=CCCCC[C@@](C)(C(=O)NCC(=O)N[C@@H](CCCNC(=N)N)C(=O)N[C@@H](Cc2c[nH]c3ccccc23)C(N)=O)NC1=O | gag-pol integrase | integrase strand transfer, inhibitor | – | – | 44 ± 4 µM |
| CC(C)(F)CCN(Cc1ccc(F)cc1)c1nc(C#N)nc(N2CCOCC2)n1 | CPL | enzyme activity, inhibitor, Z-L-R-AMC hydrolysis fluorescence | – | – | 0.017 µM |
| CCN(C)C(=O)Oc1ccccc1/C=C1\Cc2cc(OC)c(OC)cc2C1=O | CES2 | enzyme activity, inhibitor | – | 33 min preincubation, with: fluorescein diacetate | 0.00056 ± 3e-05 µM |
| CC(=O)N[C@H](Cc1ccc2ccccc2c1)C(=O)N[C@](C)(Cc1ccc(Cl)cc1)C(=O)N[C@H](Cc1c[nH]c2ccccc12)C(=O)N[C@@H](CO)C(=O)N[C@@H](CCCCNC(C)C)C(=O)N[C@H](Cc1ccc(O)cc1)C(=O)N[C@@H](CC(C)C)C(=O)N[C@@H](CCCNC(=N)N)C(=O)N1CCC[C@H]1C(=O)N[C@H](C)C(N)=O | Gonadotropin-releasing hormone receptor III (Gallus gallus, UniProt Q5EFE0) | inositol phosphate production, antagonist | COS-7 transfected | with: GnRH-II 1 nM | 0.351 ± 0.114 µM |
| CC(C)(C)c1ccc(S(=O)(=O)N2CC2C(N)=O)cc1 (stereo not shown) | P4HB | enzyme activity, inhibitor, absorbance | – | pH 7.6 | 11.7 µM |
| CN(CCO)c1ccc(/C=C/C(=O)c2ccco2)cc1 | PTGS1 (Ovis aries, UniProt P05979) | enzyme activity, inhibitor, ELISA | – | – | < 25 µM and 20.4 µM |
| C=C(C)[C@]12C[C@@H](C)[C@@]34O[C@](Cc5ccccc5)(O[C@@H]1[C@@H]3C=C(COC(=O)Cc1cc(I)c(O)c(OC)c1)C[C@]1(O)C(=O)C(C)=C[C@@H]41)O2 | Trpv1 (Rattus norvegicus, UniProt O35433) | calcium signal, antagonist, fluorescence | – | – | 0.2 µM |

| SMILES | target | assay | test system | setting | IC50 |
| --- | --- | --- | --- | --- | --- |
| CC[C@H](C)[C@@H]1NC(=O)[C@H](CC(C)C)NC(=O)[C@@](C)(NC(=O)[C@H](Cc2ccccc2)NC(=O)[C@H](Cc2ccc(O)cc2)NC(=O)[C@H](C)NC(=O)[C@@H](N)[C@@H](C)O)CCCC=CCCC[C@@](C)(C(=O)NCC(=O)N[C@@H](CCCNC(=N)N)C(=O)N[C@@H](Cc2c[nH]c3ccccc23)C(N)=O)NC(=O)[C@H](CC(C)C)NC1=O | gag-pol integrase | integrase strand transfer, inhibitor | – | – | 25 ± 7 µM |
| Fc1ncc(C2CC3CCC2N3)cc1-c1ccncc1 (racemic) | Chrna7 (Rattus norvegicus, UniProt Q05941) | ion current, two-electrode voltage clamp | – | oocytes | 75 µM |
| CCCCCCOc1ccc(Nc2ccccc2C(=O)O)cc1 | AR | reporter gene, antagonist, MMTV-Luc reporter | MDA-kb2 | 20 h, with: 8 nM DHT (EC90) | > 100 µM |
| CC(=O)N[C@@H](Cc1ccccc1)C(=O)N[C@@H](CC(C)C)C(=O)N[C@H](C(=O)N[C@@H](CC(=O)O)C(=O)CCl)[C@@H](C)O | Caspase-5 (CASP5, Homo sapiens, UniProt P51878) | enzyme activity, inhibitor, fluorescence | – | – | 15.6 µM and 15 µM |
| CC[C@@H]1C(=O)N(C)c2cnc(Nc3ccc(C(=O)NCCCC[C@H](NC(=O)[C@@H](NC(=O)[C@H](CO)NC(=O)[C@H](Cc4cncn4CCCCCCCCc4ccccc4)NC(=O)[C@H](CC(C)C)NC(=O)[C@@H]4CCCN4C(C)=O)[C@@H](C)OP(=O)(O)O)C(N)=O)cc3OC)nc2N1C1CCCC1 | ALK (Homo sapiens, UniProt Q9UM73) | enzyme activity, inhibitor | – | – | > 10 µM |
| N#Cc1nc(N2CCOCC2)nc(N(Cc2ccc(F)cc2)CC2CCCNC2)n1 (stereo not shown) | CPL | enzyme activity, inhibitor | – | with: Z-L-R-AMC | 0.18 µM |
| C[C@@H]1CCN(c2nc3ccc(Cl)cc3o2)CCN1S(=O)(=O)c1ccc2c(c1)OCCO2 | HCRTR2 (Homo sapiens, UniProt O43614) | calcium signal, antagonist, fluorescence | – | – | 1.78 µM |
| Brc1ccc(Oc2ccc(Br)cc2Br)c(Br)c1 | Abcb1a (Mus musculus, UniProt P21447, N83Q/N87Q/N90Q) | ATPase activity, inhibitor | purified recombinant protein | 5 min, pH 7.5, with: verapamil 100 µM | 22.6 µM |
| COc1ccc(-n2c(SCCCN3CCOCC3)nnc2[C@H](Cc2ccccc2)NC(=O)Cc2c(C)[nH]c3ccccc23)cc1 | HIV-1 capsid hexamer | CPSF6 binding, inhibitor, SPR competition | – | – | 0.0924 µM |
| CC[C@H](C)[C@H](NC(=O)[C@H](Cc1ccccc1)NC(=O)[C@H](CN)NC(=O)[C@H](CCCNC(=N)N)NC(=O)[C@H](Cc1ccccc1)NC(=O)[C@H](Cc1ccccc1)NC(=O)[C@H](CCN)NC(=O)[C@H](CO)NC(=O)[C@H](CC(C)C)NC(=O)[C@H](CCCNC(=N)N)NC(=O)[C@H](CCSC)NC(=O)[C@H](C)N)C(=O)N[C@@H](CC(C)C)C(=O)N[C@@H](CCC(N)=O)C(=O)N[C@@H](CCCNC(=N)N)C(=O)N[C@@H](CCCCN)C(=O)N[C@@H](CCCCN)C(=O)O | histidine kinase ComD | – | Streptococcus pneumoniae cells, Streptococcus pneumoniae | – | > 1 µM |
| COC(=O)C=CCCC(NC(=O)c1ccncc1C(=O)O)C(=O)NC(C(=O)N1CC(=O)CC1C(=O)NC(C(=O)NC(C(N)=O)C1CCCCC1)C1CCCCC1)C(C)(C)C (stereo not shown) | Coagulation factor XIII A chain (Mouse, UniProt Q8BH61) | isopeptidase activity, inhibitor | – | mouse enzyme, with: substrate A101 | 0.019 ± 0.0006 µM |
| Nc1nc2nc3nc(N)sc3cc2s1 | Papain (Carica papaya, UniProt P00784) | enzyme activity, inhibitor | – | – | 18 µM |
| CCCCNC(P(=O)(O)O)P(=O)(O)O | Squalene synthase (Homo sapiens, UniProt P37268) | enzyme activity, inhibitor | – | – | 0.41 µM |
| N=C(N)NCCC[C@@H](NC(=O)[C@@H](CCCNC(=N)N)NC(=O)[C@@H](CCCNC(=N)N)NC(=O)[C@@H](CCCNC(=N)N)NC(=O)[C@@H](CCCNC(=N)N)NC(=O)[C@@H](CCCNC(=N)N)NC(=O)CCCCCNC(=O)[C@H]1O[C@@H](n2cnc3c(N)ncnc32)[C@H](O)[C@@H]1O)C(N)=O | cGMP-dependent protein kinase 1, isoform alpha (PRKG1, Homo sapiens, UniProt Q13976) | – | – | – | 0.2 µM |
| CSCC[C@H](NC(=O)[C@H](Cc1ccccc1)NC(=O)[C@H](Cc1c[nH]cn1)NC(=O)CNC(=O)[C@@H](NC(=O)[C@H](C)NC(=O)[C@H](Cc1c[nH]c2ccccc12)NC(=O)[C@H](CCC(N)=O)NC(=O)[C@@H]1CCC(=O)N1)C(C)C)C(N)=O | BRS3 (Homo sapiens, UniProt P32247) | human GRPR activity, cell-based | – | – | > 3 µM |
| CN(C)c1ccc(C(=O)NCc2ccc(CNC(=O)CS)cc2)cc1 | HDAC6 (Homo sapiens, UniProt Q9UBN7) | enzyme activity, inhibitor | – | – | 1.54 µM |
| COc1cccc(/C=C/C(=O)C(c2ccccc2)c2ccccc2)c1OC | PTGS2 (Homo sapiens, UniProt P35354) | enzyme activity, inhibitor, ELISA | – | – | 15.4 µM |
| N=C(N)c1ccc(C(=O)N[C@@H](Cc2ccc(O)cc2)C(=O)N2CCC(OCC(=O)O)CC2)cc1 | TMPRSS2 (Homo sapiens, UniProt O15393) | enzyme activity, inhibitor, fluorescence | – | – | 1.39 µM |
| O=C(CCCCCCC(=O)Nc1ccc(N=Nc2ccccc2)cc1)NO | HDAC8 | enzyme activity, inhibitor | – | cis isomer, irradiated | 0.777 ± 0.16 µM |
| N=C(N)NCCC[C@H](N)C(=O)NCC(=O)NCC(=O)N[C@@H](Cc1ccccc1)C(=O)O | Integrin alpha-IIb/beta-3, ADP-activated (Homo sapiens, UniProt P05106+P08514) | fibrinogen binding, inhibitor | human platelets | – | > 1000 µM |
